Results pooled from the literature.
A part holds a random share of what one study measured.
UniProt Q96RR4, sequence (whole entry, looked up): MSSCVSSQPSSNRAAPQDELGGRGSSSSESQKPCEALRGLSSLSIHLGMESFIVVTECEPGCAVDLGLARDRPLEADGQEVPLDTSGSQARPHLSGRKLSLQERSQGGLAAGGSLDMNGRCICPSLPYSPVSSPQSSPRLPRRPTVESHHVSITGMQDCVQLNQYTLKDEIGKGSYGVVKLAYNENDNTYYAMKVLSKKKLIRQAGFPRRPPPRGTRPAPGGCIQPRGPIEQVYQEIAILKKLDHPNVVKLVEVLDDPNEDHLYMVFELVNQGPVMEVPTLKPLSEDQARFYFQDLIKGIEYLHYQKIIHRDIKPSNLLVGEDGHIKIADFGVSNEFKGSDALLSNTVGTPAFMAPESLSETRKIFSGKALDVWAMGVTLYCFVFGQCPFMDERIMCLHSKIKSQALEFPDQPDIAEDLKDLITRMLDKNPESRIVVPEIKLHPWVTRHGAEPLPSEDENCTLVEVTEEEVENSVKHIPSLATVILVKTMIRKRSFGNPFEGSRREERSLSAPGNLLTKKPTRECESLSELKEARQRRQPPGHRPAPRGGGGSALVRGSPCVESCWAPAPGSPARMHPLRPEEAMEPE
UniProt Q13163, sequence (whole entry, looked up): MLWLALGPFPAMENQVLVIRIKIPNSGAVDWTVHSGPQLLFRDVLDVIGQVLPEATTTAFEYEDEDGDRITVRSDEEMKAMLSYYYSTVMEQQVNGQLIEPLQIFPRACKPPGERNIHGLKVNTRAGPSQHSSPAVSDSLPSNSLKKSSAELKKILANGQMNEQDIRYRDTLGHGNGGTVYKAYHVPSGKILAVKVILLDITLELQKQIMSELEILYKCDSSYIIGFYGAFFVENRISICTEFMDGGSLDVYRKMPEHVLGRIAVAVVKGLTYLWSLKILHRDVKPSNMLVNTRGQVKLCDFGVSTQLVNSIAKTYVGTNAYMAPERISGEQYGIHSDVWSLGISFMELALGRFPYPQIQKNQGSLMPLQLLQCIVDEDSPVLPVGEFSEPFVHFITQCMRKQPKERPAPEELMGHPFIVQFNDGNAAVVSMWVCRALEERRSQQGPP
UniProt P36897, sequence (whole entry, looked up): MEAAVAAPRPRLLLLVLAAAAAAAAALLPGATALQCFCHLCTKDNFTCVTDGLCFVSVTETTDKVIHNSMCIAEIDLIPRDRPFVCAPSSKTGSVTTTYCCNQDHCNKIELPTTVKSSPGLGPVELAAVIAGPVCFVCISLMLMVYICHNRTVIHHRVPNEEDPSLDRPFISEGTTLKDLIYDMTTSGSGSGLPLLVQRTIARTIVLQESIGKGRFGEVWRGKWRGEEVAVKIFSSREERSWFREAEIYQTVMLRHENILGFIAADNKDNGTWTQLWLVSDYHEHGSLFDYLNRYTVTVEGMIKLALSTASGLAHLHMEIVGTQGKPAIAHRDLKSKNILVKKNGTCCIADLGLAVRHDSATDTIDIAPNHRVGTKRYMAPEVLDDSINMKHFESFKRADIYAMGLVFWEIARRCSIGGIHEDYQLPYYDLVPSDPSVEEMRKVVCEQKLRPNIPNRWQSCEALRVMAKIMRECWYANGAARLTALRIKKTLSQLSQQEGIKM
UniProt P29320, sequence (whole entry, looked up): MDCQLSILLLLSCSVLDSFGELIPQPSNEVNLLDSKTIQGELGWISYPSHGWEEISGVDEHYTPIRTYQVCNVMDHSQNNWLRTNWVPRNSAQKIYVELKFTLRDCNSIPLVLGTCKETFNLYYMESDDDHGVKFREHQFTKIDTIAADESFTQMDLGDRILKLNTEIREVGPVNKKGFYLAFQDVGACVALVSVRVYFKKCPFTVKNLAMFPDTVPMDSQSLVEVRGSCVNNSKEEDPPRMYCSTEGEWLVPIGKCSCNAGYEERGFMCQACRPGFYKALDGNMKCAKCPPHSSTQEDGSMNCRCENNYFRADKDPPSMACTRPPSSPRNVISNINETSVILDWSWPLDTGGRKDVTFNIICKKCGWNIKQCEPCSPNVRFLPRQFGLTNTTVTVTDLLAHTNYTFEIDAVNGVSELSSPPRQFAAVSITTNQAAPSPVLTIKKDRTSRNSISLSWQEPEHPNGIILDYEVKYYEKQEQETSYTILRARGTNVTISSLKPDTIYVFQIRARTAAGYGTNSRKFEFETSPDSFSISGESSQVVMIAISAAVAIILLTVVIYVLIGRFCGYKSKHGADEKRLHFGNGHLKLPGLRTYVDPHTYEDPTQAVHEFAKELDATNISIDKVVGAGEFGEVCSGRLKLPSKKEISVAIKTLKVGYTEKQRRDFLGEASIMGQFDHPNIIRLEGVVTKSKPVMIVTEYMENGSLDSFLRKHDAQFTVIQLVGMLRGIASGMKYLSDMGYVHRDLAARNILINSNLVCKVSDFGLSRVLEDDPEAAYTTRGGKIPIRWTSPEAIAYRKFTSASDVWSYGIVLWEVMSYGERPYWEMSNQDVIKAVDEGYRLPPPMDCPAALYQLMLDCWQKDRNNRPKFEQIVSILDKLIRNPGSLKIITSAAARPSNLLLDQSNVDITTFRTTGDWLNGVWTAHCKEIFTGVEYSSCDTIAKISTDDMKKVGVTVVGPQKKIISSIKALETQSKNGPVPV
UniProt P45984, sequence (whole entry, looked up): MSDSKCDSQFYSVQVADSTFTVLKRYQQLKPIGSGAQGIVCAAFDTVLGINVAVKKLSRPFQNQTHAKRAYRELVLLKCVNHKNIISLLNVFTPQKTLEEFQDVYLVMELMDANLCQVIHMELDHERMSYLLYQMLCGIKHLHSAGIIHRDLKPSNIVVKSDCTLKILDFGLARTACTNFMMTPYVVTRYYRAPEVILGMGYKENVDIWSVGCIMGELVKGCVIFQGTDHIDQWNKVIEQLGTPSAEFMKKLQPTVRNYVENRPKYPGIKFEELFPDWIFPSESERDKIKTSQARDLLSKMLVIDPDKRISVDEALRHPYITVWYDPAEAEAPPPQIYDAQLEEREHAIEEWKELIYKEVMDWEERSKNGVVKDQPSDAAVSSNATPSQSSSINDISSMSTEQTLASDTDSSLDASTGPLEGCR
UniProt P53355, sequence (whole entry, looked up): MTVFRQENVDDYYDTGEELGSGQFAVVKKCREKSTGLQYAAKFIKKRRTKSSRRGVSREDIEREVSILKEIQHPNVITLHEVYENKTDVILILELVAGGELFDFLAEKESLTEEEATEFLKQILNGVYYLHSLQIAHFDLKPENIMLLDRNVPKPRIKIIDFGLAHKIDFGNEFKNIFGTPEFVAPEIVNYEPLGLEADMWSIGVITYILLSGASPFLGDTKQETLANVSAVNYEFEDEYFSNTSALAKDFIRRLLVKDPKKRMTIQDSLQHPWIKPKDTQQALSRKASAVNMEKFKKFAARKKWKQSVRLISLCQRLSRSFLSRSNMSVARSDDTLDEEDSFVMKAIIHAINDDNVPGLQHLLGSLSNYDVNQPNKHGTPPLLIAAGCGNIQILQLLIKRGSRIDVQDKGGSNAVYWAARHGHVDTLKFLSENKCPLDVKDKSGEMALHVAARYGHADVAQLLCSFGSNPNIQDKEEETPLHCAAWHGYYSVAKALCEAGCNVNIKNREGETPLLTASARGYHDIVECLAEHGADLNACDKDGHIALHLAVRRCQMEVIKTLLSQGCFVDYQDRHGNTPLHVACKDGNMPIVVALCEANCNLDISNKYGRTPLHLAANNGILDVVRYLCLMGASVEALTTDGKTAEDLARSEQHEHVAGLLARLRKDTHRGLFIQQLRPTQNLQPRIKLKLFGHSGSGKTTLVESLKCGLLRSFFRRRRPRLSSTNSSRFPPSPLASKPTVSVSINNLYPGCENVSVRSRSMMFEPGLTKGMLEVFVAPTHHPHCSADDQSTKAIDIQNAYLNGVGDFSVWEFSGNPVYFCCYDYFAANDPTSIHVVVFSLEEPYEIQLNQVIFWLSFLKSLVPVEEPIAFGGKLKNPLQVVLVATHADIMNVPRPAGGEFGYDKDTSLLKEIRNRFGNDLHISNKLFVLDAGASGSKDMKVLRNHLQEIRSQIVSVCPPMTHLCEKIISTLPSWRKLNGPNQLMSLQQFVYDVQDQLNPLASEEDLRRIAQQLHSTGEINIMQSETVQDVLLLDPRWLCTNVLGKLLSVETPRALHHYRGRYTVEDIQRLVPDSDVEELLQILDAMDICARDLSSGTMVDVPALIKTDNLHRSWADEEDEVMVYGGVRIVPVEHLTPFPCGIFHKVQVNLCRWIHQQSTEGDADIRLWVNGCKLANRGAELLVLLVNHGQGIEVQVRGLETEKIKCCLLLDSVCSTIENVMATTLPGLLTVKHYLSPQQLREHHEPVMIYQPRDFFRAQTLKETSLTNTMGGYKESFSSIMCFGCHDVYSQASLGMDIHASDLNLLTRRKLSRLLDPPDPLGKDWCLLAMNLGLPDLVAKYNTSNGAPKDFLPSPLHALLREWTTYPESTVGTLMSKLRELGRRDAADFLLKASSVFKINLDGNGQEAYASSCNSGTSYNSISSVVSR
UniProt O75914, sequence (whole entry, looked up): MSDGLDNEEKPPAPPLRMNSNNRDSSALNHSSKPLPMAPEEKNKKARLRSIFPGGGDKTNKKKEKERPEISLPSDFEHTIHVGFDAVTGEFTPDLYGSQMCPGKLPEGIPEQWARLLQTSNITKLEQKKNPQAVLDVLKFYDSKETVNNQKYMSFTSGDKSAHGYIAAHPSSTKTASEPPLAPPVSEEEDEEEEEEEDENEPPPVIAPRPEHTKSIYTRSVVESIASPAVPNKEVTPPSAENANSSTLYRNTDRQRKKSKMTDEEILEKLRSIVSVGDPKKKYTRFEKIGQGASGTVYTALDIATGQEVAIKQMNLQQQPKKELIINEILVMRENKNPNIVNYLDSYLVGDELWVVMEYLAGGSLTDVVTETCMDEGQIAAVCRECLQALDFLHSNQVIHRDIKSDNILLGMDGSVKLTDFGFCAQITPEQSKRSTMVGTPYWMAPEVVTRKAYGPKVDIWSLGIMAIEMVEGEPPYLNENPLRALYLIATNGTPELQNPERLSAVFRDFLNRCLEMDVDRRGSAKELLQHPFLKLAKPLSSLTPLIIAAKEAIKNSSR

Series 1
Compound: C[C@H](c1ccc(F)cc1)N(Cc1cccc(C(=O)O)c1)C(=O)c1cnc2ccccc2c1
Observed: cell-free assay
Technique: competition with immobilised ligand
Tested at: 1 µM
Measurement: remaining binding
Cyclin-dependent kinase 8 (CDK8, Homo sapiens, UniProt P49336): 100%
Fibroblast growth factor receptor 3 (FGFR3, Homo sapiens, UniProt P22607, G697C): 100%
Ephrin type-A receptor 3 (EPHA3, Homo sapiens, UniProt P29320): 85%
Interleukin-1 receptor-associated kinase 4 (IRAK4, Homo sapiens, UniProt Q9NWZ3): 95%
Macrophage-stimulating protein receptor (MST1R, Homo sapiens, UniProt Q04912): 100%
Ribosomal protein S6 kinase beta-1 (RPS6KB1, Homo sapiens, UniProt P23443): 100%
Ribosomal protein S6 kinase alpha-1, N-terminal kinase domain (RPS6KA1, Homo sapiens, UniProt Q15418): 100%
Serine/threonine-protein kinase mTOR (MTOR, Homo sapiens, UniProt P42345): 93%
Ephrin type-A receptor 6 (EPHA6, Homo sapiens, UniProt Q9UF33): 100%
Phosphorylase b kinase gamma catalytic chain, skeletal muscle/heart isoform (PHKG1, Homo sapiens, UniProt Q16816): 88%
Hormonally up-regulated neu tumor-associated kinase (HUNK, Homo sapiens, UniProt P57058): 100%
Protein kinase C eta type (PRKCH, Homo sapiens, UniProt P24723): 75%
Activin receptor type-1 (ACVR1, Homo sapiens, UniProt Q04771): 100%
High affinity nerve growth factor receptor (NTRK1, Homo sapiens, UniProt P04629): 100%
Serine/threonine-protein kinase tousled-like 1 (TLK1, Homo sapiens, UniProt Q9UKI8): 97%
Serine/threonine-protein kinase PAK 6 (PAK6, Homo sapiens, UniProt Q9NQU5): 100%
Microtubule-associated serine/threonine-protein kinase 1 (MAST1, Homo sapiens, UniProt Q9Y2H9): 100%
Dual specificity mitogen-activated protein kinase kinase 5 (MAP2K5, Homo sapiens, UniProt Q13163): 92%
Tyrosine-protein kinase Lck (LCK, Homo sapiens, UniProt P06239): 100%
Serine/threonine-protein kinase pim-2 (PIM2, Homo sapiens, UniProt Q9P1W9): 100%
Mitogen-activated protein kinase kinase kinase 9 (MAP3K9, Homo sapiens, UniProt P80192): 100%
Serine/threonine-protein kinase PAK 3 (PAK3, Homo sapiens, UniProt O75914): 96%
Peripheral plasma membrane protein CASK (CASK, Homo sapiens, UniProt O14936): 86%
Mitogen-activated protein kinase 10 (MAPK10, Homo sapiens, UniProt P53779): 82%
Cyclin-dependent kinase 16 (CDK16, Homo sapiens, UniProt Q00536): 100%

Series 2
SMILES: Cc1ccc(NC(=O)c2ccnc(C(F)(F)F)c2)cc1-c1cc(OCCO)nc(N2CCOCC2)c1
Observed: binding
Tested at: 1 µM
Measurement: remaining binding
Mitogen-activated protein kinase kinase kinase 6 (MAP3K6, Homo sapiens, UniProt O95382): 87%
Receptor tyrosine-protein kinase erbB-3 (ERBB3, Homo sapiens, UniProt P21860); competition with immobilised ligand: 95%
Myosin light chain kinase (MYLK3, Homo sapiens, UniProt Q32MK0); competition with immobilised ligand: 100%
Calcium/calmodulin-dependent protein kinase type IV (CAMK4, Homo sapiens, UniProt Q16566): 100%
Mitogen-activated protein kinase 1 (MAPK1, Homo sapiens, UniProt P28482): 86%
Proto-oncogene tyrosine-protein kinase receptor Ret (RET, Homo sapiens, UniProt P07949, V804L): 79%
Mitogen-activated protein kinase 12 (MAPK12, Homo sapiens, UniProt P53778); competition with immobilised ligand: 96%
Tyrosine-protein kinase Fyn (FYN, Homo sapiens, UniProt P06241); competition with immobilised ligand: 100%
Mitogen-activated protein kinase kinase kinase 19 (MAP3K19, Homo sapiens, UniProt Q56UN5); competition with immobilised ligand: 81%
Phosphatidylinositol 4-kinase beta (PI4KB, Homo sapiens, UniProt Q9UBF8): 100%
Atypical kinase COQ8A, mitochondrial (COQ8A, Homo sapiens, UniProt Q8NI60); competition with immobilised ligand: 99%

Series 3
Compound: CC(C)n1cnc(-c2ccc(F)cc2)c1-c1ncc(C(=O)Nc2ccc(N3CCN(C)CC3)cc2)[nH]1
Measurement: patients with TEAE
phase 2a trial; patients with idiopathic pulmonary fibrosis; 60 mg once daily, eye swelling, grade 5: 0%
phase 2a trial; idiopathic pulmonary fibrosis patients; oral, 30 mg once daily, urine red cells, grade 1: 0%
phase 2a trial; idiopathic pulmonary fibrosis patients; oral, dose not given, ESR increased, grade 5, all arms: 0%
phase 2a trial; idiopathic pulmonary fibrosis patients; oral, 60 mg once daily, CK-MB increased, grade 2: 0%
phase 2a trial; patients with idiopathic pulmonary fibrosis; 60 mg once daily, endocrine disorders SOC, grade 3: 0%
phase 2a trial; idiopathic pulmonary fibrosis patients; oral, dose not given, GLDH increased, grade 1, all arms: 0%
phase 2a trial; patients with idiopathic pulmonary fibrosis; 60 mg once daily, renal and urinary disorders SOC, grade 5: 0%
phase 2a trial; patients with idiopathic pulmonary fibrosis; 60 mg once daily, skin papilloma, maximum intensity grade 1: 0%
phase 2a trial; patients with idiopathic pulmonary fibrosis; 60 mg once daily, skin papilloma, maximum intensity grade 2: 0%
phase 2a trial; patients with idiopathic pulmonary fibrosis; dose not given, atopic dermatitis, grade 3, all arms: 0%
phase 2a trial; patients with idiopathic pulmonary fibrosis; dose not given, endocrine disorders SOC, grade 1, all arms: 0%
phase 2a trial; idiopathic pulmonary fibrosis patients; oral, dose not given, LDL increased, grade 5, all arms: 0%
phase 2a trial; idiopathic pulmonary fibrosis patients; oral, 60 mg once daily, CK-MB increased, grade 3: 0%
phase 2a trial; idiopathic pulmonary fibrosis patients; oral, 60 mg once daily, ESR increased, grade 4: 0%
measured: CA19-9 increased; idiopathic pulmonary fibrosis patients; 60 mg once daily: 0%
phase 2a trial; patients with idiopathic pulmonary fibrosis; 60 mg once daily, endocrine disorders SOC, grade 5: 0%
phase 2a trial; patients with idiopathic pulmonary fibrosis; 30 mg once daily, nervous system disorders SOC, grade 4: 0%

Series 4
SMILES: Nc1[nH]nc2nnc(-c3c(-c4ccccc4)nn4ccccc34)cc12
Observed: enzyme activity
Mode: inhibitor
Tested at: 0.5 µM
Relative to: control
Measurement: remaining activity
Serine/threonine-protein kinase Chk2 (CHEK2, Homo sapiens, UniProt O96017): 97%
Serine/threonine-protein kinase Nek2 (NEK2, Homo sapiens, UniProt P51955): 95.3%
TGF-beta receptor type-1 (TGFBR1, Homo sapiens, UniProt P36897): 96.1%
Cyclin-dependent kinase 5, with p25 (CDK5, Homo sapiens, UniProt Q00535): 101%
STE20/SPS1-related proline-alanine-rich protein kinase (STK39, Homo sapiens, UniProt Q9UEW8): 89.1%
TGF-beta receptor type-2 (TGFBR2, Homo sapiens, UniProt P37173): 112%
Mitogen-activated protein kinase 9 (MAPK9, Homo sapiens, UniProt P45984): 48.4%
Serine/threonine-protein kinase 10 (STK10, Homo sapiens, UniProt O94804): 70.9%
Protein kinase C beta type, isoform beta-I (PRKCB, Homo sapiens, UniProt P05771): 96.5%
Inhibitor of nuclear factor kappa-B kinase subunit epsilon (IKBKE, Homo sapiens, UniProt Q14164): 95.5%
Mitogen-activated protein kinase kinase kinase 3 (MAP3K3, Homo sapiens, UniProt Q99759): 110%
Calcium/calmodulin-dependent protein kinase kinase 2 (CAMKK2, Homo sapiens, UniProt Q96RR4): 101%
cGMP-dependent protein kinase 1, isoform beta (PRKG1, Homo sapiens, UniProt Q13976): 89.5%
Calcium/calmodulin-dependent protein kinase type II subunit delta (CAMK2D, Homo sapiens, UniProt Q13557): 96.5%
G protein-coupled receptor kinase 3 (GRK3, Homo sapiens, UniProt P35626): 101%
Inhibitor of nuclear factor kappa-B kinase subunit beta (IKBKB, Homo sapiens, UniProt O14920): 115%
Protein kinase C alpha type (PRKCA, Homo sapiens, UniProt P17252): 87.2%
Serine/threonine-protein kinase OSR1 (OXSR1, Homo sapiens, UniProt O95747): 102%
cAMP-dependent protein kinase catalytic subunit alpha (PRKACA, Homo sapiens, UniProt P17612): 97.7%
Serine/threonine-protein kinase STK11 (STK11, Homo sapiens, UniProt Q15831): 91.8%
Cyclin-dependent kinase 4, with cyclin D1 (CDK4, Homo sapiens, UniProt P11802): 89.2%
Death-associated protein kinase 1 (DAPK1, Homo sapiens, UniProt P53355): 95.9%
Death-associated protein kinase 2 (DAPK2, Homo sapiens, UniProt Q9UIK4): 103%
Tyrosine-protein kinase Lyn, isoform B (LYN, Homo sapiens, UniProt P07948): 97.1%
